Published values from different studies.
Every numbered part comes from another study and shows a few of its results, in no order. Positions count from the first letter of the parent shown.

Set 1 — target: UBE2Z UBC core domain (UniProt Q9H832); method: yeast two-hybrid; medium: yeast; setting: mostly zero background; relative to: not given; direction: higher = stronger interaction; quantity: lacZ reporter activity
UniProt Q9H832, sequence (whole entry, looked up): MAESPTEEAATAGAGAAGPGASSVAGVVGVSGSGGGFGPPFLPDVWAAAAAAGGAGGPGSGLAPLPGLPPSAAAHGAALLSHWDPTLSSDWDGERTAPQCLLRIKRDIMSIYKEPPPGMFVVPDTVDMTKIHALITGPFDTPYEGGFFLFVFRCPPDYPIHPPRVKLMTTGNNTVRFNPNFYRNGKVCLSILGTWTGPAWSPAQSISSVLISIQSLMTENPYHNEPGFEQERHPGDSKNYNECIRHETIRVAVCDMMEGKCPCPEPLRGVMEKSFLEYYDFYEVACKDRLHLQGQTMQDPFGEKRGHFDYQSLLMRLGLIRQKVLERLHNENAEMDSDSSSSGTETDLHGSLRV
B1: ZMIZ2 RING domain (UniProt Q8NF64); chain GTIPGTPGPNGEDGVEQTAIKVSLKCPITFRRIQLPARGHDCRHIQCFDLESYLQLNCERGTWRCPVCNKTALLEGLEVDQYMLGILIYIQNSDYEEITIDPTCSWK
B2: RNF133 RING domain (UniProt Q8WVZ7); chain DEEINPNGDSCVICFERYKPNDIVRILTCKHFFHKNCIDPWILPHGTCPICKCDILKVLGIQ
B3: SYTL4 RING domain (UniProt Q96C24); chain RGSQHYSDRTCARCQESLGRLSPKTNTCRGCNHLVCRDCRIQESNGTWRCKVCAKEIELKKAT
B1 (ZMIZ2 RING domain): 0
GSRLQEINDVCAICYHEFTTSARITPCNHYFHALCLRKWLYIQDTCPMCHQKVYIEDDIK (RNF139 RING domain (UniProt Q8WU17)): 3460
B2 (RNF133 RING domain): 0
FDGDVDPDLKCALCHKVLEDPLTTPCGHVFCAGCVLPWVVQEGSCPARCRGRLSAKELN (PDZRN3 RING domain (UniProt Q9UPQ7)): 0
AMYLQENGIDCPKCKFSYALARGGCMHFHCTQCRHQFCSGCYNAFYAKNKC (RNF31 RING domain (UniProt Q96EP0)): 0
GSDDEEIPFKCFICRQSFQNPVVTKCRHYFCESCALQHFRTTPRCYVCDQQTNGVFNPA (RNF113A RING domain (UniProt O15541)): 0
B3 (SYTL4 RING domain): 0
AVPSGLEENLCKICMDSPIDCVLLECGHMVTCTKCGKRMNECPICRQYVIRAVHVF (RFFL RING domain (UniProt Q8WZ73)): 0
KLRKLKEAMLCMVCCEEEINSTFCPCGHTVCCESCAAQLQSCPVCRSRVEHVQHVY (MYLIP RING domain (UniProt Q8WY64)): 0

Set 2 — target: CCNB2, cyclin fold, Cln2 fusion (human); method: yeast growth competition, sequencing; medium: yeast; setting: weak parent motif; relative to: not given; direction: higher = stronger binding; quantity: normalised enrichment score
Starting sequence: RB1 docking peptide (human); PKPLKKLRFDIEG; partner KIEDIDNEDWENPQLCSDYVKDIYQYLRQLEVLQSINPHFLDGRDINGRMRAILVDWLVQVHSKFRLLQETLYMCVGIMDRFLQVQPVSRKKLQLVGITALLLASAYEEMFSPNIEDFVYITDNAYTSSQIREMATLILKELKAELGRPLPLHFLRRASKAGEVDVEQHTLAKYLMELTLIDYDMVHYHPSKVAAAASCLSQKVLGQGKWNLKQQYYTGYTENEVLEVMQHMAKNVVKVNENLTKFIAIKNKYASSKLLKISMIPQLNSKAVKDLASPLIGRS
L7S: 0.508
P3Y: 0.546
P1G: 0.368
I11T: -0.214
K5A: -0.227
K2S: 0.499
F9H: 0.431
L4M: 0.708
E12V: -0.0533
D10W: -0.0981
K2H: 0.186
K6T: -0.0505
D10V: 0.906

Set 3 — method: competition protein-binding microarray; molecule type: double-stranded DNA, one strand shown; medium: in vitro; tested at: 2 µM; with: Pho4 competitor, 0.05 µM; direction: higher = stronger binding; quantity: fluorescence intensity
Target: Centromere-binding protein 1, full length, His-tagged (CBF1, Saccharomyces cerevisiae, UniProt P17106, residues 1-351)
UniProt P17106, sequence (whole entry, looked up): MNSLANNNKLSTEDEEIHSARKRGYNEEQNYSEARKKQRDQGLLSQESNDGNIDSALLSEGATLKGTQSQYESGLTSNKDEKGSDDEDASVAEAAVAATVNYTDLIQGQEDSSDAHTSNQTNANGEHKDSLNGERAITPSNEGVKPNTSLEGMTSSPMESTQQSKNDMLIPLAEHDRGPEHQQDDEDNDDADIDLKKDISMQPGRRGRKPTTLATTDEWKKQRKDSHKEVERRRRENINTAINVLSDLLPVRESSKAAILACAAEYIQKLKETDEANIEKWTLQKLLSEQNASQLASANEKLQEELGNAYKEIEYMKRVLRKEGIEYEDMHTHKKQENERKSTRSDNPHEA
Setting: whole 60-bp probe, lowest competitor level
CGGGGTTAAGTTTGTCACGTGTTTTGCTTGCAGCAGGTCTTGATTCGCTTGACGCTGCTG: 5840 a.u.
AGGTTTCGCCATAGCCATGTGCCTATATTAAATAGAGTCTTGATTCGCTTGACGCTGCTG: 161 a.u.
AAAGCGGTAATTTGTTTAGTGGGTGCAGATATCTATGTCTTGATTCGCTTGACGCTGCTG: 77.4 a.u.
GCTTCTCAACTACAGCTCGTGTTCCTCTTGCAGCAAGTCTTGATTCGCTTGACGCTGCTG: 91 a.u.
TTGAAAGCTGGTACGACCGTGATGGGCGGCGGTGTTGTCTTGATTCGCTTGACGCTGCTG: 55 a.u.
CCTACCGCTTCTCCACACGTTTCTTAGATATGCGCGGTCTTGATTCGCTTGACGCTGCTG: 88.6 a.u.
TATGCTGTGTTTGACCAGGCGAACAACATTGAGAGAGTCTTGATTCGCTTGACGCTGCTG: 78.6 a.u.
CATACCCAACCTTGTCACACTACTTAAGATATTTGTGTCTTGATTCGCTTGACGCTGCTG: 103 a.u.
CTTCTGTAAATTTGTCACTAAACTTGACGCGCCCCGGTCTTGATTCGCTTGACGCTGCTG: 94.6 a.u.
AAATTACTAAGTTGTCACCTCACTTACCCCGTATGAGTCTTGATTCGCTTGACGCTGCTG: 69.3 a.u.
CATGGAAAAGCAAGTGCCGTGCCAGTTCCAACTAAGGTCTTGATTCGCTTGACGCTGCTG: 74.7 a.u.
CTTTCCCGATCTTGGCATGTGGGTGTAGCACATTTGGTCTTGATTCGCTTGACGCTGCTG: 70.9 a.u.
CGTCCTAGTGATTGTGGTGTGGGTGCCATGAGGAAGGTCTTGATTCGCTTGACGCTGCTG: 93.3 a.u.
CTAACGAAGGTTTGTCACTTCACTTACAAGCCAAGTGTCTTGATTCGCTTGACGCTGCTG: 74.4 a.u.
CATCTTATTTACGAACTCGTGATGGTTTTGTAAAATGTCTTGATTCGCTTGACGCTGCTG: 624 a.u.
CTAACCGGCCACCGTCACATGATTCGATTGTGTAGCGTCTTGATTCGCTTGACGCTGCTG: 942 a.u.
AATTTCAACGACAGGTTCGTGCTTTTCACCTTCACCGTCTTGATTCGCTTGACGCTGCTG: 67.4 a.u.

Set 4 — method: RNA Bind-n-Seq; molecule type: RNA; medium: in vitro; tested at: not given; relative to: input RNA pool; direction: higher = stronger binding; quantity: bound/input enrichment
Target: RING finger protein unkempt homolog, zinc fingers 1-6, GST-SBP tag (UNK, Homo sapiens, UniProt Q9C0B0, residues 30-357)
UniProt Q9C0B0, sequence (30-357, looked up): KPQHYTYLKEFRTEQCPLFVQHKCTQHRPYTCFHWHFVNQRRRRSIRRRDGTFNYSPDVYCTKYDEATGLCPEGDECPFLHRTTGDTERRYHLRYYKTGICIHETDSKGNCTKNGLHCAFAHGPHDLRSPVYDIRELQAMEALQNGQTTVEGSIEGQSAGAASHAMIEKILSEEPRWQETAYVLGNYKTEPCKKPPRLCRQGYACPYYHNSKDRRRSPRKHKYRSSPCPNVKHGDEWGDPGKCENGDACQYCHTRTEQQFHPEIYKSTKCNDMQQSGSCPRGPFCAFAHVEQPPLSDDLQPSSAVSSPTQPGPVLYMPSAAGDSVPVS
Setting: RNA with constant flanks, human-mouse chimeric sites, ends assumed
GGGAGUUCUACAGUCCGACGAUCCUUAAUGUUAAUAUUUUUAAAGGAAGCAAGCUAAAAUGUCUGCUUUUGGUACUACAUGCAUUAAUAAAAGGUUAAGUUUUGUUUUCCACUGAAGUACUAUUUAACAUCUCAGAAAAAAACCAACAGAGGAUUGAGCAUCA: 0.171 ratio
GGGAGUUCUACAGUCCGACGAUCAAAGAGUGGAUAGAAUGUGCACACGGGAUCGGUGGGACCCGGGCGAAAAAGGAGUGCAAGAUAGAGUAUGAUGAUUUCGAAGAGUGCUUGCUUCGGUACAAAACGAUGAGGCGAAUGCAUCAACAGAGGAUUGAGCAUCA: 0.712 ratio
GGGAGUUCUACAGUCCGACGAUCCACGUGUCUGCAGUACUUGAUGUGGACUACUCUCCCACUGGGAAGGAAUUUGUGUCUGCUAGUUUCGAUAAGUCUAUUAGAAUCUUUCCUGUGGACAAGAGCCGAAGCAGGGAGGUAUAUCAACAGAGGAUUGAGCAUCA: 1.46 ratio
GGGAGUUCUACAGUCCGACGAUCGACCCACAGUGGUCUGAGGAGCAACUCAUUGCUGCAAAAUUCUGUUUUGCUGGACUUGUUAUAGGGCAGACUGAAGUGGACAUCAUGAGUCAUGCCACACAAGCUAUUUUUGAAAUUCUGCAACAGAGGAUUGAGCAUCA: 0.182 ratio
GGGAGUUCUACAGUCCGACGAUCAAAGUGAUGACUAUGUUUGUCCAACGACAGGUGUUUGCGGAGAGCAAAGAUGAGAUUGCGUUAGUCCUCUAUGGCACAGAUGGCACUGAUAAUGCCCUUGCUGGCAAGGAUCAGUAUCAGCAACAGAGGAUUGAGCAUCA: 0.242 ratio
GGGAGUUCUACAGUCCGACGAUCUUGCCUGAGAACGAGGAUGAGCUGGAGAGCACCAAUAGGCGCUACACCAAGAGGGACUGCAGCACUUUCCUCAGAACUAGUGAGACGGGCAUCGUGGACCAGGUCAUGGUCACUCUCAACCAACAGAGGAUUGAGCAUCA: 0.121 ratio

Set 5 — method: RNA Bind-n-Seq; molecule type: RNA; medium: in vitro; tested at: 1 µM; setting: whole 134-nt RNA, ends assumed; with: 150 mM KCl; relative to: input library; direction: higher = stronger binding; quantity: log2 enrichment
Target: Ras GTPase-activating protein-binding protein 1, RRM domain (G3BP1, Homo sapiens, UniProt Q13283)
UniProt Q13283, sequence (whole entry, looked up): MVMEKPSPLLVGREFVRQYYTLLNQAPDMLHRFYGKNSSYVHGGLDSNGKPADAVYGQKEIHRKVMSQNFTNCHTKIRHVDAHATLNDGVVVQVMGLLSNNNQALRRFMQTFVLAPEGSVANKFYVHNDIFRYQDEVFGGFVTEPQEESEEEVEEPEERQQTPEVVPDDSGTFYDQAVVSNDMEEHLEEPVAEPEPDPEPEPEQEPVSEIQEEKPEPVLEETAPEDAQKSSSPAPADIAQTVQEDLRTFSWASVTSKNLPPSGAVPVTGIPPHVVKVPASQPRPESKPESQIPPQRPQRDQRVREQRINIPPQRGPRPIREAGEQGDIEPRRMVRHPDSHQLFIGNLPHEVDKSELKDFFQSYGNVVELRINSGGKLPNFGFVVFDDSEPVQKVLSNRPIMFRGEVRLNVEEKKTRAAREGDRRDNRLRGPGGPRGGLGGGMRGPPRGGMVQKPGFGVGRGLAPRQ
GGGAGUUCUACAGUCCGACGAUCCCUGUGCUACACAUCGUAUGUACCGAAUCGGGCCCCCCGGGGCCCCCCGGGCCCCCCGGGGAAAGUAUUAUGUUACGCCGUUCGGAUCUGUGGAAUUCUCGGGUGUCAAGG: -0.654
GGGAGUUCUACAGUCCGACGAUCUCCUGUGCUACACAUCGUAUGUACCGAAUCGGGUUUUUUGGUUUUUUGGGGUUUUUUGGAAAGUAUUAUGUUACGCCGUUCGGAUCUGCAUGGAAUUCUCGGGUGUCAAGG: -0.0591
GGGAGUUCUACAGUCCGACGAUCGCAGGAAGUAAAAACAAAUGGAAAUGCUUCCGAUAGUGGCAGGGGUGGGGGUUGCUAAGGAAAGGGUGGGAUGGGAGUGGGUAAAGAGUUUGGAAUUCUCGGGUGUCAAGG: 1.34
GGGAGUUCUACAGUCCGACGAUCCCUCAAGUCCUGUGCUACACAUCGUAUGUACCGAAUCGGAAGGGAAGGGAAGGAAAGUAUUAUGUUACGCCGUUCGGAUCUGCACUUCCAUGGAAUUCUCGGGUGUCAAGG: -0.301
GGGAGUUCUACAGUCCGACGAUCUCCUGCCAACCUCUCUUAAUGCUCUGAGAGCCUCUGGUGUUGACAUAGAAGAGGAAACGGAGAAGAACCUGGAAAAGGUACAGACUAUCAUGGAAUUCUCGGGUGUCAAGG: -0.252
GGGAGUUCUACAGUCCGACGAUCUAACUUUAGAGGUGGAUCUGAUGGAUAUGGCAGUGGACGUGGAUUUGGGGAUGGCUAUAAUGGGUAUGGAGGAGGACCUGGAGGUGGCAAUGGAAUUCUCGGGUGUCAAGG: -0.733
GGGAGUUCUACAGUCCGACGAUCUCCUGUGCUACACAUCGUAUGUACCGAAUCGGGGUGGGGUUUUUUUGGGGAAAAAGGGGAAAGUAUUAUGUUACGCCGUUCGGAUCUGCAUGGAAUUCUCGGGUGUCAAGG: 0.768
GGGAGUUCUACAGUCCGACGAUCUUUCUGUGUGCUUAGGUGCCCGAGCUACUGAGGGUCUAAGUCCGGGCAGCCGAAGAGUGUGGUAGGUAACGGUCCUCAGCGCAAGGGUCAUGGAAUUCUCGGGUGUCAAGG: 0.0765
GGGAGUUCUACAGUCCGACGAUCCUCAAGUCCUGUGCUACACAUCGUAUGUACCGAAUCGGAAAGGAAAGGUUUGGAAAGUAUUAUGUUACGCCGUUCGGAUCUGCACUUCCAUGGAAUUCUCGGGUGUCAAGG: -0.215
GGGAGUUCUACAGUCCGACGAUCCCUGUGCUACACAUCGUAUGUACCGAAUCGGGGAAAAAGGGGUUUUUUUGGGGAAAGGGGAAAGUAUUAUGUUACGCCGUUCGGAUCUGCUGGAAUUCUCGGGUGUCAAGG: 0.737
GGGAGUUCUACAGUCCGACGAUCUUGGAAGAGACCAGUGAAAUUCGAUCUGACUUGGAGCAGUUAGACCACGAGGUUAAGGAGGCUCAGACACUGUGCGAUGAACUCUCAGUGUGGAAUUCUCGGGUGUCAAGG: 0.0598
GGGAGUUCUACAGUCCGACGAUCUCAAGUCCUGUGCUACACAUCGUAUGUACCGAAUCGGAAAAAAAGGAGGUUUGGAAAGUAUUAUGUUACGCCGUUCGGAUCUGCACUUCCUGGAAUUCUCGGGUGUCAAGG: -0.245
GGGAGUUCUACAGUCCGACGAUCUAACUUUAGAGGAGGAUCUGAUGGAUAUGGCAGUGGACGUGGAUUUGGGGAUGACUAUAAUGGGUAUGGAGGAGGACCUGGAGGUGGCAAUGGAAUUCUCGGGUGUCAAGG: -0.142
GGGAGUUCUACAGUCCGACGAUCUUUGUCCCUGCUCAGGAUGAGACUUCUGUGAGCAGCGAGGAUUUUGAUAUGAGCGACUCCACAUGGAUGUCAGCUGACCCGCACCUGGCCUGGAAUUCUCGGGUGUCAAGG: 0.0549

Single results of other studies — method: cross-linking MS
HSP90AB1 (Homo sapiens, UniProt P08238) — interaction screen (MAP1B (Homo sapiens, UniProt P46821); hits only): cross-linked
UTP15 (Homo sapiens, UniProt Q8TED0) — cross-linked residues (UTP18 (Homo sapiens, UniProt Q9Y5J1); cell fractions; with: DMTMM): D349 to K287
TXNDC9 (Homo sapiens, UniProt O14530) — interaction screen (CCT3 (Homo sapiens, UniProt P49368); hits only): cross-linked
KIF5B (Homo sapiens, UniProt P33176) — cross-linked residues (KLC2 (Homo sapiens, UniProt Q9H0B6); cell fractions; with: DMTMM): K801 to E66

Repeated from above (set 2):
D10V: 0.906
K2S: 0.499
E12V: -0.0533
I11T: -0.214
D10W: -0.0981
L4M: 0.708
K6T: -0.0505
F9H: 0.431
P3Y: 0.546
